Results of several laboratories.
Compare with care: the assays were run in different laboratories.
Target: Adenosine receptor A1 (ADORA1, Homo sapiens, UniProt P30542)
Sequence of UniProt P30542 (whole entry, looked up): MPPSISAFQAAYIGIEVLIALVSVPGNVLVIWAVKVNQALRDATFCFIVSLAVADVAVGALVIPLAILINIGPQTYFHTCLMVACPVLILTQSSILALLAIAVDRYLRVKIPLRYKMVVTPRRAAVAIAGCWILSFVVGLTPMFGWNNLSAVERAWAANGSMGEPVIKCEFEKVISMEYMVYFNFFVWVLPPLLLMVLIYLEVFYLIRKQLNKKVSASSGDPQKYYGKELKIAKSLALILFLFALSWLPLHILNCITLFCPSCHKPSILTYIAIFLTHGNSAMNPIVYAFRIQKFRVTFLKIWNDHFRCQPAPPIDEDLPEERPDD

SMILES	test	setting	measurement	result
N[C@H](C(=O)N1CCCC1)C1CCN(c2nccc3c(-c4ncc(Cl)cc4Cl)cccc23)CC1	functional response, agonist	10 µM	response	-2%
CS(C)(=O)=Nc1ccc(-c2ccc(-c3nc4cc(O[C@@H]5CO[C@H]6[C@@H]5OC[C@H]6O)[nH]c4cc3F)cc2)cc1	calcium signal, antagonist	10 µM	inhibition	2%
COc1ccc(F)cc1S(=O)(=O)Nc1cnc2c(c1)C(=O)NCCO2	ligand displacement, radioligand	10 µM	inhibition	-2%
CCOC(=O)[C@](CC)(CCCSCCOCCOCCNC(=O)c1ccc(-c2c3ccc(=N)c(S(=O)(=O)O)c-3oc3c(S(=O)(=O)O)c(N)ccc23)c(C(=O)O)c1)NC(=O)c1ccc(C2CC2)c(Cc2ccc(F)cc2)n1	ligand displacement, radioligand	10 µM	inhibition	2%
Cc1sc2c(c1C)C(c1ccc(Cl)cc1)=NC(CC(=O)OC(C)(C)C)c1nnc(C)n1-2 (centres unmarked)	ligand displacement, radioligand	1 µM	inhibition	-10%
Cc1ccc2c(n1)c(-c1cccc(S(C)(=O)=O)c1)c(C)n2C/C(F)=C/CN	ligand displacement, radioligand	10 µM	inhibition	4%
CN[C@@H]1[C@H](O)[C@H](NC)[C@H]2O[C@]3(O)[C@H](O[C@@H]2[C@H]1O)O[C@H](C)C[C@H]3NC(=O)Cc1cc(Cl)ccn1	ligand displacement, radioligand	10 µM	inhibition	8%
C[C@H](NCc1ccc(-c2ccc(C(F)(F)F)cc2)cc1)C(N)=O	radioligand binding, SafetyScreen panel	1 µM, species human, with: 1.0 nM [3H]DPCPX	inhibition	3%

A few entries again:
SMILES	test	setting	measurement	result
C[C@H](NCc1ccc(-c2ccc(C(F)(F)F)cc2)cc1)C(N)=O	radioligand binding, SafetyScreen panel	1 µM, species human, with: 1.0 nM [3H]DPCPX	inhibition	3%
